Measured values pooled from the literature.
Each numbered part is a random draw from the data of one study; scales do not carry over between parts. Positions count from the first letter of the parent shown.
Sequence of UniProt Q86Z02 (whole entry, looked up): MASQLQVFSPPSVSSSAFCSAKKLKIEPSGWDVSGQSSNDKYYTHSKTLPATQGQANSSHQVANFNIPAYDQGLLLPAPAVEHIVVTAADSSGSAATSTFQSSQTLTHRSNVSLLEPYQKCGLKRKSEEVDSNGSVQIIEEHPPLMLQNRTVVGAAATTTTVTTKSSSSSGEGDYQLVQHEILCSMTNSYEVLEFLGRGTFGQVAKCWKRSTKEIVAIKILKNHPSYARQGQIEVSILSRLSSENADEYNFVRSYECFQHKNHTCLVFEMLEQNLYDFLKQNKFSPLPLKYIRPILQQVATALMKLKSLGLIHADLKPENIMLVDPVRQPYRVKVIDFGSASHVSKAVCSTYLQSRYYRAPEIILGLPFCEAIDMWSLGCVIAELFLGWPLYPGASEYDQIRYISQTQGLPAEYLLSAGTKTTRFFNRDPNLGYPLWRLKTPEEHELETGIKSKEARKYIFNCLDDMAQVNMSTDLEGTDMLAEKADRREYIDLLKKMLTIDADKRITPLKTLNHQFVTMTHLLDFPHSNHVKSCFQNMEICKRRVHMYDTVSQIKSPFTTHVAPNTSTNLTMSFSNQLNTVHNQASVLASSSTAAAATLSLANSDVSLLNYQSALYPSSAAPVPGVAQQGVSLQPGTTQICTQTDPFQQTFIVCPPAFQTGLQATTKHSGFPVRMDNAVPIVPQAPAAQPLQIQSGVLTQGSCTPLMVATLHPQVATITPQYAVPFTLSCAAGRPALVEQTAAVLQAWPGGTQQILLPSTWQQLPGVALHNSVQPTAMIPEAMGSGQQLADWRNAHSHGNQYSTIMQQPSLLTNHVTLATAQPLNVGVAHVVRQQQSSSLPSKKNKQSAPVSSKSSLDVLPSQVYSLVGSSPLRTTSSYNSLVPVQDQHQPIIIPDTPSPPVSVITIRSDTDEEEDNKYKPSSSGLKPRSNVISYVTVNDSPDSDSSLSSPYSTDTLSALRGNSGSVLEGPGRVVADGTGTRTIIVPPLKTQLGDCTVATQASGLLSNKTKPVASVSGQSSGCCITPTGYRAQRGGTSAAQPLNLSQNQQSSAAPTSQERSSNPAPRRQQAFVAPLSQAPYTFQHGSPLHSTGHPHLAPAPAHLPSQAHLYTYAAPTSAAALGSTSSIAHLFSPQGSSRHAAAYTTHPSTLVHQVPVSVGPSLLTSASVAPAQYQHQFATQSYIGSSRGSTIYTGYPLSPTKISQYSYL

Set 1
Target: Prothrombin, mature alpha-thrombin (F2, Homo sapiens, UniProt P00734)
Method: aptamer microarray, sandwich
Molecule type: DNA with 2'F-ANA
Medium: in vitro
Tested at: 200 nM
Setting: whole 15-mer aptamer, many near background
Added: Cy3 exosite-II aptamer, 400 nM
Direction: higher = stronger binding
Sequence: GGTTGGTGTGGTTGG
Modification	mean fluorescence intensity [a.u.]
2'F-ANA at 2 3 4 5 6 8 10 13 14 15	52.8
2'F-ANA at 1 2 3 7 8 9 10 15	75.1
2'F-ANA at 3 5 7 9 10 11	63.5
2'F-ANA at 1 4 5 6 10 11 13	47.6
2'F-ANA at 2 5 6 7 9 11	145
2'F-ANA at 9 12 13 14	189
2'F-ANA at 4 6 7 8 9 10 11	91.5
2'F-ANA at 3 4 9 11 12	769

Set 2
Target: CREM, bZIP domain (human)
Method: DHFR protein complementation
Medium: yeast
Setting: single substitutions, most at no-binding floor
Baseline: wild-type JUN-FOS pair
Direction: higher = stronger binding
Starting sequence: JUN, bZIP domain (human); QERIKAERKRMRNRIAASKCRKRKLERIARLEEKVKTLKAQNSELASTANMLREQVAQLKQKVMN; partner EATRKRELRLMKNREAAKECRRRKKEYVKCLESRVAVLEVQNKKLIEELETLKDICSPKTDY
Substitution	binding fitness [natural log]
Q58P	-1.53
T48Q	-1.28
E54H	-1.47
A57L	-1.45
A49G	-1.58
K39G	-1.42
A29E	-1.47
A57P	-1.56

Set 3
Target: TAR DNA-binding protein 43, full length, His tag (TARDBP, Homo sapiens, UniProt Q13148, residues 1-414)
Method: RNA Bind-n-Seq
Molecule type: RNA
Medium: in vitro
Tested at: 20 nM
Setting: 6-mer, flanks averaged, single round
Added: 150 mM LiCl
Baseline: input library
Direction: higher = stronger binding
Sequence	6-mer enrichment (R)
AGCCCG	0.927
CGGGCC	0.983
CACCAC	0.998
AAAUCC	0.837
GGGGCC	1.26
AACGGU	0.864
UUUCGG	0.981
UGUGGC	1.27

Mixed results
Compound	target	test	conditions	how to read	endpoint	result
CN(C)c1ccc(C=C2C(=O)Nc3ccccc32)cc1	Homeodomain-interacting protein kinase 1 (HIPK1, Homo sapiens, UniProt Q86Z02)	enzyme activity, inhibitor	0.5 µM	baseline: control	remaining activity	103%

Repeated from above (set 2):
Substitution	binding fitness [natural log]
A29E	-1.47
A57L	-1.45
T48Q	-1.28
